Assay results gathered from unrelated publications.
Numbered parts are unrelated; each lists some results of a single study.

Set 1 — technique: protein-binding microarray; molecule type: double-stranded DNA, one strand shown; medium: in vitro; concentration: 250 nM; notes: 60-bp whole probe; together with: salmon DNA 0.4 mg/ml; reference: random background probes; reading: higher = stronger binding
Target: Interferon regulatory factor 5, full length, phosphomimetic (IRF5, Homo sapiens, UniProt Q13568-2, residues 1-514, K96S/S451D/S453D/S456D/S462D)
| Sequence | log fluorescence [z-score] |
| --- | --- |
| GCCTAGCACTTAGGTATCTGTTTCGGTTAGTGCTAGGTCTTGATTCGCTTGACGCTGCTG | 9.38 |
| GCCTAGCACTCAGCTCTGCAGCTCAGACTGTGCTAGGTCTTGATTCGCTTGACGCTGCTG | -0.496 |
| GCCTAGCACTCTCATTCCAATTCTTTTTATGTGCTAGTCTTGATTCGCTTGACGCTGCTG | 1.79 |

Set 2 — technique: aptamer microarray, sandwich; molecule type: DNA with 2'F-ANA; medium: in vitro; concentration: 200 nM; together with: Cy3 exosite-II aptamer, 400 nM; reading: higher = stronger binding
Target: Prothrombin, mature alpha-thrombin (F2, Homo sapiens, UniProt P00734)
Notes: whole 15-mer aptamer, many near background
| Sequence | mean fluorescence intensity [a.u.] |
| --- | --- |
| GGTTGGTGTGGTTGG (2'F-ANA at 3 4 6 8 11 12 14) | 341 |
| GGTTGGTGTGGTTGG (2'F-ANA at 1 3 5 6 12 13) | 112 |
| GGTTGGTGTGGTTGG (2'F-ANA at 2 3 4 5 8 10 11 12 14 15) | 51.9 |

Set 3 — technique: protein binding microarray; molecule type: double-stranded DNA, one strand shown; medium: in vitro; concentration: not given; reference: not given; reading: higher = stronger binding
Target: Histone acetyltransferase KAT6A, both winged helices, GST fusion (KAT6A, Homo sapiens, UniProt Q92794, residues 1-181)
Notes: 8-mer, flanks averaged, mean of 2 arrays, mostly near background
Residues (chain): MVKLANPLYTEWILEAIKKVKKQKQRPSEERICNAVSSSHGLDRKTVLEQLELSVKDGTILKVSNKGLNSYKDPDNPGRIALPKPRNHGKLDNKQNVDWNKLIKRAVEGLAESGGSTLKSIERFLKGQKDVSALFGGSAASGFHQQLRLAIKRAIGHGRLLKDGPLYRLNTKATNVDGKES
| Sequence | E-score |
| --- | --- |
| ACCCGTAA | 0.21 |
| AAGATAAG | -0.146 |
| CCGCGCAA | 0.293 |
| AAATAAAG | -0.11 |

Single results of other studies
| Molecule | target | test | system | setting | scale | measurement | result |
| --- | --- | --- | --- | --- | --- | --- | --- |
| PhoQ, residues 284 288 289 292 302 303 QWQEDG | PhoP, residues 12 14 15 18 19 NNFVT (Escherichia coli, UniProt P23836) | Sort-seq, refers to: YFP reporter | E. coli | PhoQ-PhoP variant library, together with: 10 µM Mg2+ | reference: high Mg2+ state, higher = stronger signaling | fold induction | 2.62 |

Excerpt of the above (single results of other studies):
| Molecule | target | test | system | setting | scale | measurement | result |
| --- | --- | --- | --- | --- | --- | --- | --- |
| PhoQ, residues 284 288 289 292 302 303 QWQEDG | PhoP, residues 12 14 15 18 19 NNFVT (Escherichia coli, UniProt P23836) | Sort-seq, refers to: YFP reporter | E. coli | PhoQ-PhoP variant library, together with: 10 µM Mg2+ | reference: high Mg2+ state, higher = stronger signaling | fold induction | 2.62 |
